Experimental data collected from several papers.
Each line is one published result; not all experiments were run side by side. ± gives the spread as reported.

Compound | assay | test system | setting | scale | measurement | result
CCCC[C@H](NC(=O)[C@@H](NC(=O)[C@H](CC(=O)O)NC(=O)[C@H](CCC(N)=O)NC(=O)[C@H](CC(C)C)NC(=O)[C@H](CC(C)C)NC(=O)[C@H](CCCN)NC(=O)[C@H](CCCNC(=N)N)NC(=O)[C@H](C)NC(=O)[C@H](CO)NC(=O)[C@H](CC(C)C)NC(=O)[C@H](CCC(N)=O)NC(=O)[C@H](CC)NC(=O)[C@H](CC(C)C)NC(=O)[C@@H](NC(=O)[C@H](CCCN)NC(=O)[C@H](CCCNC(=N)N)NC(=O)[C@H](Cc1ccc(O)cc1)NC(=O)[C@H](CO)NC(=O)[C@H](CCC(N)=O)NC(=O)[C@@H](NC(=O)[C@H](Cc1ccccc1)NC(=O)[C@@H](NC(=O)[C@H](C)NC(=O)[C@H](CC(=O)O)NC(=O)[C@@H](C)NC(=O)[C@H](Cc1ccc(O)cc1)NC)[C@@H](C)CC)[C@@H](C)O)C(C)C)[C@@H](C)CC)C(=O)N[C@@H](CC(=O)O)C(=O)N[C@@H](CCCNC(=N)N)C(=O)NCCCCC(N)=O | GH release | male rat, serum | subcutaneous, dose not given, 15 min | baseline: GHRH(1-29)NH2 | relative potency | 92.7
COc1ccc2c(c1)c(CC(=O)OCC(=O)OC(C)(C)C)c(C)n2C(=O)c1ccc(Cl)cc1 | hot plate test | BALB/c mice | 50 mg/kg, 90 min | – | latency of nociceptive response | 13.9 ± 1.11 s
NS(=O)(=O)NCC(O)c1ccccc1F (centres unmarked) | protection from scPTZ seizures | mouse | added: pentylenetetrazol 85 mg/kg s.c. | – | ED50 | > 250 mg/kg
CC[C@H]1[C@@H](O)[C@@H]2[C@H](CC[C@]3(C)[C@@H]([C@H](C)CCOS(=O)(=O)[O-])CC[C@@H]23)[C@@]2(C)CC[C@@H](O)C[C@@H]12.[Na+] | – | ob/ob NASH mouse model | oral, 3 mg/kg once daily, before treatment, baseline of 8 week study | – | body weight | 48.2 ± 1 g
CCc1nc2cc3ccccc3cc2cc1C(=O)N1CCC[C@H]1C(=O)N[C@@H](CCC/C=C/CCC[C@H](NC(=O)[C@@H]1CCCN1C(=O)c1cc2cc3ccccc3cc2nc1CC)C(=O)N[C@@H](CCCCN)C(=O)NCCCN)C(=O)N[C@@H](CCCCN)C(=O)NCCCN | MBNL1-independent splicing | HSA^LR mouse, DM1 model, muscle | intraperitoneal, 40 mg/kg once daily, 5 days | – | Capzb splicing | no effect
CCCCSc1nnc(-c2ccc(N)cc2)o1 | H2O2 scavenging | – | – | – | IC50 | 40.6 ± 2.2 µM
O=C(O)CNC(=O)CNC(=O)[C@@H]1CCCN1C(=O)[C@@H]1CCCN1 | diketopiperazine formation, Arrhenius plot, ESI-MS | 1-propanol | 70, 80, 90 °C, 0.5% acetic acid | – | activation energy | 18.4 ± 0.239 kcal/mol
Cc1ccc(C(=O)Nc2ccc(CP(=O)(O)O)cc2CP(=O)(O)O)cc1NC(=O)c1cccc(NC(=O)Nc2cccc(C(=O)Nc3cc(C(=O)Nc4ccc(CP(=O)(O)O)cc4CP(=O)(O)O)ccc3C)c2)c1 | APTT | normal human plasma | 1.5-fold increase | – | concentration for APTT increase | 311 µM
BP(=O)(OP(=O)([O-])OC[C@H]1O[C@@H](n2c[n+](C)c3c(=O)[nH]c(N)nc32)[C@H](O)[C@@H]1O)OP(=O)([O-])OC[C@H]1O[C@@H](n2c[n+](C)c3c(=O)[nH]c(N)nc32)[C@H](O)[C@@H]1O | cap-dependent translation | rabbit reticulocyte lysate | no cap pre-incubation | baseline: m7GpppG over compound | IC50 ratio | 2.9 fold
[2H]C([2H])([2H])C(c1cc2nnc(-c3cc(F)ccc3F)n2nc1OCc1ncnn1C)(C([2H])([2H])[2H])C([2H])([2H])[2H] | – | amygdala-kindled Wistar rats, amygdala | oral, 100 mg/kg, 2 h before stimulation | baseline: baseline | afterdischarge duration change | -78%
CCC(=O)N1CCN(c2ccc(N(C)C(=O)C(C)(C)c3cc(C(F)(F)F)cc(C(F)(F)F)c3)c(-c3ccccc3C)c2)CC1 | mechanical allodynia, antagonist, von Frey test | hNK1R-407 mice | intrathecal, 5 µL, 100 nM, added: capsaicin | – | duration of inhibition | ≥ 8 h
O=C(/C=C/c1ccccc1)OCCCC[P+](c1ccccc1)(c1ccccc1)c1ccccc1 | DCFDA fluorescence | energized rat liver mitochondria | 10 µM | – | H2O2 level | no effect
Cc1cc(O)c(C=O)c2c1C(=O)Oc1c(CO)c(O)c3c(c1O2)C(O)OC3=O (centres unmarked) | – | rat, male, streptozotocin-induced diabetes, seminal vesicle | oral, 10 mg/kg, 9 weeks | – | relative organ weight | 0.22 ± 0.01 g
O=[N+]([O-])c1cccc(S(=O)(=O)NC[C@@H](O)[C@@H]2CCc3cc(F)ccc3O2)c1 | – | rat, cotton pellet granuloma | oral, 100 mg/kg, 8 days | – | wet granuloma weight | 190.9 ± 1.84 mg
CCCC[C@H](NC(=O)[C@@H](NC(=O)[C@H](CC(=O)O)NC(=O)[C@H](CCC(N)=O)NC(=O)[C@H](CC(C)C)NC(=O)[C@H](CC(C)C)NC(=O)[C@H](CCCN)NC(=O)[C@H](CCCNC(=N)N)NC(=O)[C@H](C)NC(=O)[C@H](CO)NC(=O)[C@H](CC(C)C)NC(=O)[C@H](CCC(N)=O)NC(=O)[C@H](CC)NC(=O)[C@H](CC(C)C)NC(=O)[C@@H](NC(=O)[C@H](CCCN)NC(=O)[C@H](CCCNC(=N)N)NC(=O)[C@H](Cc1ccc(O)cc1)NC(=O)[C@H](CO)NC(=O)[C@H](CC(N)=O)NC(=O)[C@@H](NC(=O)[C@H](Cc1ccccc1)NC(=O)[C@@H](NC(=O)[C@H](C)NC(=O)[C@H](CC(=O)O)NC(=O)[C@@H](CC)NC(=O)CCc1ccc(O)cc1)[C@@H](C)CC)[C@@H](C)O)C(C)C)[C@@H](C)CC)C(=O)N[C@@H](CO)C(=O)N[C@@H](CCCNC(=N)N)C(=O)NCCCC(N)=O | GH release | rat, male, serum | intravenous, 1 µg/kg, 15 min | baseline: reference GHRH agonist JI-38 | relative potency | 1.5
CCCCC1NC(=O)c2ccccc21 (racemic) | thrombosis | mouse, carrageenan-induced thrombosis | oral, 20 mg/kg daily for 2 days, 24 h after carrageenan | – | black tail length | 3.5 ± 1.1 cm
CCCC[C@H](NC(=O)[C@@H](NC(=O)[C@H](CC(=O)O)NC(=O)[C@H](CCC(N)=O)NC(=O)[C@H](CC(C)C)NC(=O)[C@H](CC(C)C)NC(=O)[C@H](CCCN)NC(=O)[C@H](CCCNC(=N)N)NC(=O)[C@H](C)NC(=O)[C@H](CO)NC(=O)[C@H](CC(C)C)NC(=O)[C@H](CCC(N)=O)NC(=O)[C@H](CC)NC(=O)[C@H](CC(C)C)NC(=O)[C@@H](NC(=O)[C@H](CCCN)NC(=O)[C@H](CCCNC(=N)N)NC(=O)[C@H](Cc1ccc(O)cc1)NC(=O)[C@H](CO)NC(=O)[C@H](CC(N)=O)NC(=O)[C@@H](NC(=O)[C@H](Cc1ccccc1)NC(=O)[C@@H](NC(=O)[C@H](C)NC(=O)[C@H](CC(=O)O)NC(=O)[C@@H](C)NC(=O)[C@H](Cc1ccc(O)cc1)NC)[C@@H](C)CC)[C@@H](C)O)C(C)C)[C@@H](C)CC)C(=O)N[C@@H](CC(=O)O)C(=O)N[C@@H](CCCNC(=N)N)C(=O)NCC | GH release | rat, male, serum | subcutaneous, dose not given, 15 and 30 min | baseline: reference GHRH agonist JI-38 | relative potency | 1 to 4 fold
O=C1/C(=C/c2ccc(O)c(O)c2)Oc2cc(O)c(-c3ccc(O)c(O)c3)c(O)c21 | ABTS scavenging, absorbance | – | – | – | EC50 | 880 µM
CCCCCCCCCCCCCCCCOP(=O)(O)Oc1c2c(c(OP(=O)(O)OCCCCCCCCCCCCCCCC)c3c1C1CC3c3cc4c(cc31)C1CC4c3ccccc31)C1CC2c2cc3c(cc21)C1CC3c2ccccc21 | – | liposomes | 30 min | – | dye leakage | < 50%
CCCC[C@H](NC(=O)[C@@H](NC(=O)[C@H](CC(=O)O)NC(=O)[C@H](CCC(N)=O)NC(=O)[C@H](CC(C)C)NC(=O)[C@H](CC(C)C)NC(=O)[C@H](CCCN)NC(=O)[C@H](CCCNC(=N)N)NC(=O)[C@H](C)NC(=O)[C@H](CO)NC(=O)[C@H](CC(C)C)NC(=O)[C@H](CCC(N)=O)NC(=O)[C@H](CC)NC(=O)[C@H](CC(C)C)NC(=O)[C@@H](NC(=O)[C@H](CCCN)NC(=O)[C@H](CCCNC(=N)N)NC(=O)[C@H](Cc1ccc(O)cc1)NC(=O)[C@H](CO)NC(=O)[C@H](CCC(N)=O)NC(=O)[C@@H](NC(=O)[C@H](Cc1ccccc1)NC(=O)[C@@H](NC(=O)[C@H](C)NC(=O)[C@H](CC(=O)O)NC(=O)[C@@H](C)NC(=O)[C@H](Cc1ccc(O)cc1)NC)[C@@H](C)CC)[C@@H](C)O)C(C)C)[C@@H](C)CC)C(=O)N[C@@H](CC(=O)O)C(=O)NCCCCNC(=N)N | GH release | male rat, serum | subcutaneous, dose not given, 15 min | baseline: GHRH(1-29)NH2 | relative potency | 80
